Measurements collected from several papers.
Numbered parts are unrelated; each lists some results of a single study.

Study 1 — method: aptamer microarray, sandwich; molecule type: DNA with 2'F-ANA; medium: in vitro; tested at: 200 nM; together with: Cy3 exosite-II aptamer, 400 nM; reading: higher = stronger binding
Target: Prothrombin, mature alpha-thrombin (F2, Homo sapiens, UniProt P00734)
Notes: whole 15-mer aptamer, many near background
Strand	mean fluorescence intensity [a.u.]
GGTTGGTGTGGTTGG (2'F-ANA at 2 4 5 8 9 11 12)	135
GGTTGGTGTGGTTGG (2'F-ANA at 1 3 4 6 7 9 15)	178
GGTTGGTGTGGTTGG (2'F-ANA at 4 7 13 14 15)	120
GGTTGGTGTGGTTGG (2'F-ANA at 2 3 6 7 8 10 14 15)	266

Study 2 — method: protein-binding microarray; molecule type: double-stranded DNA, one strand shown; medium: in vitro; tested at: 2540 nM top; notes: 60-bp whole probe; together with: salmon DNA 0.4 mg/ml; baseline: random background probes; reading: higher = stronger binding; all sequences stand within: GCCTAGCAC … GTCTTGATTCGCTTGACGCTGCTG
Target: Interferon regulatory factor 3, full length, phosphomimetic (IRF3, Homo sapiens, UniProt Q14653, residues 1-427, S386D/S396D/S398D/S402D/T404D/S405D)
Target sequence (chain): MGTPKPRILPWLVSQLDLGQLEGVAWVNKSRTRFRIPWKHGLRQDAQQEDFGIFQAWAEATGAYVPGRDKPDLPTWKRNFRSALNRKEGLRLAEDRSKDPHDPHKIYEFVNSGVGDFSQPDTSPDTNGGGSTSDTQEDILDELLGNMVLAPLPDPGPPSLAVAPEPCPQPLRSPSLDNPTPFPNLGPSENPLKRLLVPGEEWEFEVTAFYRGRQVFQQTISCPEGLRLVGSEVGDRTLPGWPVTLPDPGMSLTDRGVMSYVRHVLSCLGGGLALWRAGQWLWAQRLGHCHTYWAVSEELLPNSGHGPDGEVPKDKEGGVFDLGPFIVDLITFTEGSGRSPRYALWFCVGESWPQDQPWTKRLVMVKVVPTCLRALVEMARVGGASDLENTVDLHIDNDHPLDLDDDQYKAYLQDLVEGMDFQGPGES
Strand	fitted relative affinity [z-score]
TCAAGTCTGCAACATGGGACTGTGCTA	-0.444
GACGGTTTCGGACTGGGCACGTGCTAG	4.59
GACGATTCCGGGTATCGAGACGTGCTA	0.626
AAAAAAAATGGAAATCTACCCGTGCTA	-0.3
GACGATCTCAGTCTCGAGGCGTGCTAG	0.646
TTAGGTATCCGTATCCTTTAGTGCTAG	4.62

Study 3 — method: competition protein-binding microarray; molecule type: double-stranded DNA, one strand shown; medium: in vitro; tested at: 2 µM; together with: Cbf1 competitor, 0.05 µM; reading: higher = stronger binding
Target: Phosphate system positive regulatory protein PHO4, full length, GST-tagged (PHO4, Saccharomyces cerevisiae, UniProt P07270, residues 1-312)
Notes: whole 60-bp probe, lowest competitor level
Target sequence (chain): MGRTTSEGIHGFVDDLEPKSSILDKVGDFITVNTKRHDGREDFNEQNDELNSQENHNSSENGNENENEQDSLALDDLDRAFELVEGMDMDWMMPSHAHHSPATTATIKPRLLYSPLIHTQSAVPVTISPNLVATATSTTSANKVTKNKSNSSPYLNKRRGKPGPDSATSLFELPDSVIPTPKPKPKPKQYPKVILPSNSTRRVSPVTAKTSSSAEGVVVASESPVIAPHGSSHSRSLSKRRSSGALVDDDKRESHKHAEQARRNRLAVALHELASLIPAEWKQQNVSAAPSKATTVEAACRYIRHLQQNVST
Strand	fluorescence intensity [a.u.]
AAAGTAGCATTCCGTTACGTGATGGGTACTTTAACCGTCTTGATTCGCTTGACGCTGCTG	4850
ACTTCATTCGGTGCTTCCGTGACGGGTTCAACGGCTGTCTTGATTCGCTTGACGCTGCTG	4810
GGAGAAACCAATGGGGGCGTGGGTAATGGAAACATTGTCTTGATTCGCTTGACGCTGCTG	11000
CGCATATTTTACTGTCATGCTTCTGTCAAGAAAAAGGTCTTGATTCGCTTGACGCTGCTG	6520

Single results of other studies
Substance	target	assay	system	conditions	how to read	quantity	result
PhoQ, residues 284 288 289 292 302 303 MLMVEA	PhoP, residues 12 14 15 18 19 NQGLL (Escherichia coli, UniProt P23836)	Sort-seq, item: YFP reporter	E. coli	PhoQ-PhoP variant library, together with: 10 µM Mg2+	baseline: high Mg2+ state, higher = stronger signaling	fold induction	10.2
